# Measurements from different studies.
# Every numbered part comes from another study and shows a few of its results, in no order. Values joined by “and” are separate records of one study, mostly repeats; a detail may differ.
# Chain of UniProt P42685 (whole entry, looked up): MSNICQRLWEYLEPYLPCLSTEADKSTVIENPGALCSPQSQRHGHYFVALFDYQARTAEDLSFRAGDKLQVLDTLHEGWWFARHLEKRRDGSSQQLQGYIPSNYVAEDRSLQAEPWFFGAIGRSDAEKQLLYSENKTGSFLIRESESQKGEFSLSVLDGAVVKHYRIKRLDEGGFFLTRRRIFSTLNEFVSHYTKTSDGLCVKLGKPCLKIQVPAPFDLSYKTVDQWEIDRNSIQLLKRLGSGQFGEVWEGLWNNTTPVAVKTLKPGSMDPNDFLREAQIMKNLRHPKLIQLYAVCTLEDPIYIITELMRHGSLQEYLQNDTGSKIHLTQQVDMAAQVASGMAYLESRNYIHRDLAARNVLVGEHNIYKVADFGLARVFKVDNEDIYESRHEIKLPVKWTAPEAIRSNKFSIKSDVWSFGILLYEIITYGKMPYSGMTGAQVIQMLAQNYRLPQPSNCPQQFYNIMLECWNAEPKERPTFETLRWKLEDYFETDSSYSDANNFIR
# Chain of UniProt P51451 (whole entry, looked up): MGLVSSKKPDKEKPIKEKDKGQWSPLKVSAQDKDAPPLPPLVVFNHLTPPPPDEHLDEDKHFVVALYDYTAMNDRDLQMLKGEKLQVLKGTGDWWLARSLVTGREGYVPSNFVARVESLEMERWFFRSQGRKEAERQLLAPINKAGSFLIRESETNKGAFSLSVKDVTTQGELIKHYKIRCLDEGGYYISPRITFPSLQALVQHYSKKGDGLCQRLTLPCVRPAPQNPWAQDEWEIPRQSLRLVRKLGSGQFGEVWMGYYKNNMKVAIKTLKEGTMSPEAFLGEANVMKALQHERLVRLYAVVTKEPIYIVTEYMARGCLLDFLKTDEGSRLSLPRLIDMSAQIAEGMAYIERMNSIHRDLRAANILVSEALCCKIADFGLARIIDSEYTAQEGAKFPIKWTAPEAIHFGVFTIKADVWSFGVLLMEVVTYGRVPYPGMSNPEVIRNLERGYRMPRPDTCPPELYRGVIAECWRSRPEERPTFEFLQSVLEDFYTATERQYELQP
# Chain of UniProt Q16512 (whole entry, looked up): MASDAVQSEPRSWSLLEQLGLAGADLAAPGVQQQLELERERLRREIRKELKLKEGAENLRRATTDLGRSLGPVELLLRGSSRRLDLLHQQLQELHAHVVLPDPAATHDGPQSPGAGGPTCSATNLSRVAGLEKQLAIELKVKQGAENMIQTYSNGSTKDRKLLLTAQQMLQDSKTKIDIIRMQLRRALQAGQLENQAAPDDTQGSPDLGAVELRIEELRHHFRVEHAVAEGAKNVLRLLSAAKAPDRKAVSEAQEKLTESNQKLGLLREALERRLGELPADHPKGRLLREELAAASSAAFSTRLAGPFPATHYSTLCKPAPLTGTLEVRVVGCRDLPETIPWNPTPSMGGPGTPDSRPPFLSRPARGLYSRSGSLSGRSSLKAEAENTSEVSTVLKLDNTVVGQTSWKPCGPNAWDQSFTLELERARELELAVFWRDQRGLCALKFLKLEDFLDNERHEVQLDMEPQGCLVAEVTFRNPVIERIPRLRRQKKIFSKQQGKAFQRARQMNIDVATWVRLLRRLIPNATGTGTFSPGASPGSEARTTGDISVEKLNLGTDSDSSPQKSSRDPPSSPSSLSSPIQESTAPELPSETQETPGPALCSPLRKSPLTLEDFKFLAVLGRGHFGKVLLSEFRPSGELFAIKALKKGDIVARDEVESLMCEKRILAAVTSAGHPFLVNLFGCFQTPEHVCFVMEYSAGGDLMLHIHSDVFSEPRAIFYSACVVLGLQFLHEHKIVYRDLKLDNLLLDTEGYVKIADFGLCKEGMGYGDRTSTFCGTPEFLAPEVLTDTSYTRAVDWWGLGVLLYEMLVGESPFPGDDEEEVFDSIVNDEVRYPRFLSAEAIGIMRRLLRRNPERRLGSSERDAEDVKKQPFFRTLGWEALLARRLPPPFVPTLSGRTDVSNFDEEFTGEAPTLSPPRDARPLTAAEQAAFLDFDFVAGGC
# Chain of UniProt Q9C098 (whole entry, looked up): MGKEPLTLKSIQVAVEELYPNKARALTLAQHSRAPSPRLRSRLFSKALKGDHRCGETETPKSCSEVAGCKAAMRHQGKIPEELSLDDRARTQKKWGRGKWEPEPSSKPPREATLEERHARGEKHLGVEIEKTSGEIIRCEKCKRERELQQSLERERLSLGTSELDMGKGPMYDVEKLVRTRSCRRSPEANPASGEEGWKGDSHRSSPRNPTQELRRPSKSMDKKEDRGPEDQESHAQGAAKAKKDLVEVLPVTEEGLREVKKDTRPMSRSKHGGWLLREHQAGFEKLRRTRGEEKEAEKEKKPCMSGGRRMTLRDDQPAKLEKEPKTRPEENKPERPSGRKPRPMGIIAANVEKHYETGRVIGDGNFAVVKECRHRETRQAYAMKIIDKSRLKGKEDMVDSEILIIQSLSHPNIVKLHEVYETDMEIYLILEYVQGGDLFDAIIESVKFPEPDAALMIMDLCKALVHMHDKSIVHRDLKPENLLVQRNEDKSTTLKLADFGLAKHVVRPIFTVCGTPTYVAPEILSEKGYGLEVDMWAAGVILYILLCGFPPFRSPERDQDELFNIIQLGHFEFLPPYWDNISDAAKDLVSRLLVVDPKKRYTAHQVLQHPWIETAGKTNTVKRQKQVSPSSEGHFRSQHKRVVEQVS
# Chain of UniProt Q16288 (whole entry, looked up): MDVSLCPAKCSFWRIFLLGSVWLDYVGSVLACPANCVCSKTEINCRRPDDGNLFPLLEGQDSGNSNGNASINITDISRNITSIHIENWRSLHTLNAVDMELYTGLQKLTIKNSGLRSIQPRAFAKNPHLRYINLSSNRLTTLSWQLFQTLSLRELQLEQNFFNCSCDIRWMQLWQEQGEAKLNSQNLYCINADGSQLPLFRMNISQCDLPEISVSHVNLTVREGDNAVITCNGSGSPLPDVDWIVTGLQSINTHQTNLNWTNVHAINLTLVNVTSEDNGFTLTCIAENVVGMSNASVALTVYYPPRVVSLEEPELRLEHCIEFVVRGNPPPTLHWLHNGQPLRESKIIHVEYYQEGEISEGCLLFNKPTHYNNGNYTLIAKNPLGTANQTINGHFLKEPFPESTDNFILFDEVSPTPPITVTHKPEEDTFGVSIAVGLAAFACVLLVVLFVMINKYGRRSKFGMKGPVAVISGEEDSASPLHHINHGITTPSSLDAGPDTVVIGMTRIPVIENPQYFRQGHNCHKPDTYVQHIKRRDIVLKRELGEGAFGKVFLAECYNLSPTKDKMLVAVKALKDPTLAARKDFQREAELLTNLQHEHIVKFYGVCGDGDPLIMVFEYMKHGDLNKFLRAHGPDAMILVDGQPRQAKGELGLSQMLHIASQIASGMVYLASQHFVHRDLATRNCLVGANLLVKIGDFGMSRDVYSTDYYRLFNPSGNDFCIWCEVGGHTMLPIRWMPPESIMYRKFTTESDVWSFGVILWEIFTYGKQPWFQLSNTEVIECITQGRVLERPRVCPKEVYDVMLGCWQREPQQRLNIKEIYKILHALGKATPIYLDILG
# Chain of UniProt P49137 (whole entry, looked up): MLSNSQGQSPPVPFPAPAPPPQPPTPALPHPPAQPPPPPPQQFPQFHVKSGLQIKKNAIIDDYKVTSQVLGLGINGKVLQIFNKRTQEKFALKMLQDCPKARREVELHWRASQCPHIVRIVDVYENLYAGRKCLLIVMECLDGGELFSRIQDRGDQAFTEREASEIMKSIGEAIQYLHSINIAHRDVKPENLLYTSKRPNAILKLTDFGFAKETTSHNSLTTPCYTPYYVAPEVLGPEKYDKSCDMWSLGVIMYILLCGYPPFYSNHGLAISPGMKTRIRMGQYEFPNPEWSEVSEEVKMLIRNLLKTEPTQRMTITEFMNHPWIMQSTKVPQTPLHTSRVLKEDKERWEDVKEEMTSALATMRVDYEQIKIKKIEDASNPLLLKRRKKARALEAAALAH
# Chain of UniProt Q96BR1 (whole entry, looked up): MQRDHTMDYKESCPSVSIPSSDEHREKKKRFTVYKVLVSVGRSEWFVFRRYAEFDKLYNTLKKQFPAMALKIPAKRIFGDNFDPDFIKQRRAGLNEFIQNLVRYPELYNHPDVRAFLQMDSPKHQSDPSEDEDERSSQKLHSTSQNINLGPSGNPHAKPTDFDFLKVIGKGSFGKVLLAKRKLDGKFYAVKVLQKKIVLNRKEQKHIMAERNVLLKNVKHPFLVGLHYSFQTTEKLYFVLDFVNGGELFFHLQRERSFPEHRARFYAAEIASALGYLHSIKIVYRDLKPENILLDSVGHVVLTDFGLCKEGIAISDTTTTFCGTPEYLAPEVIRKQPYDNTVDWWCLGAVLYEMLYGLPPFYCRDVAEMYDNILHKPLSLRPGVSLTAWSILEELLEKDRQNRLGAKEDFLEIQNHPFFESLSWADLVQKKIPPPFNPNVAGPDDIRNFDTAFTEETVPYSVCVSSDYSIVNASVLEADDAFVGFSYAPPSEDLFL
# Chain of UniProt Q15759 (whole entry, looked up): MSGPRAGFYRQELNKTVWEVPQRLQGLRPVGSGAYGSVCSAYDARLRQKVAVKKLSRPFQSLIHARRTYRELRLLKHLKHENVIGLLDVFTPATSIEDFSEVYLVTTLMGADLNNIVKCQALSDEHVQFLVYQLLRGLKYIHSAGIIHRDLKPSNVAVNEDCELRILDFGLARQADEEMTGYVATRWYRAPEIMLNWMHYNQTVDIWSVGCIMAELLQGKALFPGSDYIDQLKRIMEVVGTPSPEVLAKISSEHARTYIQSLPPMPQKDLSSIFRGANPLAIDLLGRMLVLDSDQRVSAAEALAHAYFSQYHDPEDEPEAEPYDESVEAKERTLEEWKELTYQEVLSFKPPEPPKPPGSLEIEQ
# Chain of UniProt Q9HC98 (whole entry, looked up): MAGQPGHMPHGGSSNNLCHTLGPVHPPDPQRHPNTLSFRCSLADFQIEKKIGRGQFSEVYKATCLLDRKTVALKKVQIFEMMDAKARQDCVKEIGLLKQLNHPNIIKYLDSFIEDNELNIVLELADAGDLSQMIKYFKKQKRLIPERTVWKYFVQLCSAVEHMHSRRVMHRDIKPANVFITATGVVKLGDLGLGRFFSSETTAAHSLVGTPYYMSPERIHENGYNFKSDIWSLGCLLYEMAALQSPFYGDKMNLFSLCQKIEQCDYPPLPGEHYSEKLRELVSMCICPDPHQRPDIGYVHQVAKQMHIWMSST

# Series 1
# Structure (SMILES): Cc1cc(Nc2nc(-c3ccccc3)nc3ccccc23)n[nH]1
# Effect on: enzyme activity
# Mode: inhibitor
# Tested at: 0.5 µM
# Relative to: control
target,remaining activity [%]
"Tyrosine-protein kinase FRK (FRK, Homo sapiens, UniProt P42685)",72.5
"Fibroblast growth factor receptor 3 (FGFR3, Homo sapiens, UniProt P22607)",71.7
"Dual specificity mitogen-activated protein kinase kinase 2 (MAP2K2, Homo sapiens, UniProt P36507)",102
"Casein kinase I isoform gamma-3 (CSNK1G3, Homo sapiens, UniProt Q9Y6M4)",75
"Tyrosine-protein kinase JAK3 (JAK3, Homo sapiens, UniProt P52333)",96.7
"Rhodopsin kinase GRK7 (GRK7, Homo sapiens, UniProt Q8WTQ7)",79.2
"Glycogen synthase kinase-3 beta (GSK3B, Homo sapiens, UniProt P49841)",27.9
"Macrophage-stimulating protein receptor (MST1R, Homo sapiens, UniProt Q04912)",96.6
"Serine/threonine-protein kinase Nek6 (NEK6, Homo sapiens, UniProt Q9HC98)",93.9
"Activin receptor type-1B (ACVR1B, Homo sapiens, UniProt P36896)",103
"Mitogen-activated protein kinase 3 (MAPK3, Homo sapiens, UniProt P27361)",80.8
"Serine/threonine-protein kinase TAO2 (TAOK2, Homo sapiens, UniProt Q9UL54)",90.3
"MAP kinase-activated protein kinase 2 (MAPKAPK2, Homo sapiens, UniProt P49137)",100
"Serine/threonine-protein kinase A-Raf (ARAF, Homo sapiens, UniProt P10398)",89.7

# Series 2
# SMILES: COc1ccc2[nH]c3c4[nH]c5ccc(OC)cc5c4c4c(c3c2c1)C(=O)NC4=O
# Effect on: binding
# Tested at: 1 µM
target,assay,remaining binding [%]
"Ephrin type-A receptor 3 (EPHA3, Homo sapiens, UniProt P29320)",competition with immobilised ligand,86
"Mitogen-activated protein kinase 11 (MAPK11, Homo sapiens, UniProt Q15759)",competition with immobilised ligand,100
"Tyrosine-protein kinase Blk (BLK, Homo sapiens, UniProt P51451)",competition with immobilised ligand,71
"Mast/stem cell growth factor receptor Kit (KIT, Homo sapiens, UniProt P10721, A829P)",,15
"Serine/threonine-protein kinase MRCK beta (CDC42BPB, Homo sapiens, UniProt Q9Y5S2)",competition with immobilised ligand,89

# Series 3
# SMILES: CCC(=O)N[C@@H]1CC[C@H](C(=O)N(C)c2ccc(-c3nc4ccccc4o3)cc2)C1
# Effect on: cell-free assay
# Method: competition with immobilised ligand
# Tested at: 1 µM
target,remaining binding
"NT-3 growth factor receptor (NTRK3, Homo sapiens, UniProt Q16288)",100%
"Dual specificity testis-specific protein kinase 1 (TESK1, Homo sapiens, UniProt Q15569)",75%
"Phosphatidylinositol 3-kinase catalytic subunit type 3 (PIK3C3, Homo sapiens, UniProt Q8NEB9)",100%
"Serine/threonine-protein kinase DCLK3 (DCLK3, Homo sapiens, UniProt Q9C098)",100%
"Serine/threonine-protein kinase N1 (PKN1, Homo sapiens, UniProt Q16512)",84%
"Serine/threonine-protein kinase Sgk3 (SGK3, Homo sapiens, UniProt Q96BR1)",100%
"cGMP-dependent protein kinase 1 (PRKG1, Homo sapiens, UniProt Q13976)",100%
"Serine/threonine-protein kinase WNK3 (WNK3, Homo sapiens, UniProt Q9BYP7)",100%

# Series 4
# Cell line: mouse MPNST tumor cells
# Method: high-content nuclear imaging
# Measured: cell number
# Tested at: 10 µM
# Time: 12 h
# Setting: mean of 2 replicates
# Relative to: plate mean
# Reading: higher = more cells
Compound,nuclei count
Cc1cc(N2CCOCC2)cc2[nH]c(-c3c(NCC(O)c4cccc(Cl)c4)cc[nH]c3=O)nc12 (centres unmarked),-1.45 z-score
CC(=O)CC(c1ccccc1)c1c(O)c2ccccc2oc1=O (centres unmarked),0.27 z-score
O=C1Cc2c([nH]c3ccc(Br)cc23)-c2ccccc2N1,1.16 z-score
Cc1ccc(O)c([C@H](CCN(C(C)C)C(C)C)c2ccccc2)c1,4.36 z-score and 2.95 z-score
CCNC(=O)CCC/C=C\C[C@@H]1[C@@H](/C=C/[C@@H](O)CCc2ccccc2)[C@H](O)C[C@@H]1O,1.47 z-score

# For quick reference, copied from above (series 1):
target,remaining activity [%]
"Dual specificity mitogen-activated protein kinase kinase 2 (MAP2K2, Homo sapiens, UniProt P36507)",102
"Fibroblast growth factor receptor 3 (FGFR3, Homo sapiens, UniProt P22607)",71.7
"Serine/threonine-protein kinase TAO2 (TAOK2, Homo sapiens, UniProt Q9UL54)",90.3
"Tyrosine-protein kinase JAK3 (JAK3, Homo sapiens, UniProt P52333)",96.7
"Activin receptor type-1B (ACVR1B, Homo sapiens, UniProt P36896)",103
